Measured values gathered from unrelated publications.
Every numbered part comes from another study and shows a few of its results, in no order. Values joined by “and” are separate records of one study, mostly repeats; a detail may differ. Positions count from the first letter of the parent shown.

Series 1
Target: CCNB2, cyclin fold, Cln2 fusion (human)
Method: yeast growth competition, sequencing
Matrix: yeast
Setting: weak parent motif
Relative to: not given
Direction: higher = stronger binding
Parent: viral docking peptide; PTARRRLLHDLDT; partner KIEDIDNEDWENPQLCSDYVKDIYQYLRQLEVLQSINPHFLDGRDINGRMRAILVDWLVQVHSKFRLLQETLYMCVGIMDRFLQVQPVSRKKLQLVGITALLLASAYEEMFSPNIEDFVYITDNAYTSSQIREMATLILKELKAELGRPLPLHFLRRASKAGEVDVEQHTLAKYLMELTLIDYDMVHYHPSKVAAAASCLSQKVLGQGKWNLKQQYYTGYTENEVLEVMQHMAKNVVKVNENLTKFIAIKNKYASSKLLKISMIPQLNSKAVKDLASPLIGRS
| Variant | normalised enrichment score |
| --- | --- |
| L7A | -0.0728 |
| R5A R6A L7A L8A | -0.0537 |
| T2A | 0.203 |
| R5K | 0.0688 |
| R4A | -0.059 |
| R6A | 0.59 |
| L8A | -0.222 |
| L11A | 0.32 |

Series 2
Molecule: meglumine antimoniate
Organism: Leishmania infantum chagasi
Method: qPCR
Species: golden hamster chronic infection
Route: intraperitoneal
Dose: 50 mg/kg/day
Time: 10 days
| refers to | matrix | threshold cycle |
| --- | --- | --- |
| IL-17 mRNA | spleen | 33.4 cycles and 30.5 cycles and 34.6 cycles and 35.9 cycles and 31.6 cycles |
| IL10 mRNA | liver | 29.4 cycles and 30.9 cycles and 31.6 cycles and 31.8 cycles and 31.9 cycles and 31.2 cycles |
| IL4 mRNA | liver | 33.7 cycles and 33.6 cycles and 34.9 cycles and 31.9 cycles and 34 cycles and 34.7 cycles |
| IL4 mRNA | spleen | 28.5 cycles and 33.1 cycles and 33 cycles and 30.8 cycles and 32.6 cycles and 31.3 cycles |

Series 3
Target: UDP-N-acetylglucosamine--peptide N-acetylglucosaminyltransferase 110 kDa subunit (OGT, Homo sapiens, UniProt O15294)
Sequence of UniProt O15294 (whole entry, looked up): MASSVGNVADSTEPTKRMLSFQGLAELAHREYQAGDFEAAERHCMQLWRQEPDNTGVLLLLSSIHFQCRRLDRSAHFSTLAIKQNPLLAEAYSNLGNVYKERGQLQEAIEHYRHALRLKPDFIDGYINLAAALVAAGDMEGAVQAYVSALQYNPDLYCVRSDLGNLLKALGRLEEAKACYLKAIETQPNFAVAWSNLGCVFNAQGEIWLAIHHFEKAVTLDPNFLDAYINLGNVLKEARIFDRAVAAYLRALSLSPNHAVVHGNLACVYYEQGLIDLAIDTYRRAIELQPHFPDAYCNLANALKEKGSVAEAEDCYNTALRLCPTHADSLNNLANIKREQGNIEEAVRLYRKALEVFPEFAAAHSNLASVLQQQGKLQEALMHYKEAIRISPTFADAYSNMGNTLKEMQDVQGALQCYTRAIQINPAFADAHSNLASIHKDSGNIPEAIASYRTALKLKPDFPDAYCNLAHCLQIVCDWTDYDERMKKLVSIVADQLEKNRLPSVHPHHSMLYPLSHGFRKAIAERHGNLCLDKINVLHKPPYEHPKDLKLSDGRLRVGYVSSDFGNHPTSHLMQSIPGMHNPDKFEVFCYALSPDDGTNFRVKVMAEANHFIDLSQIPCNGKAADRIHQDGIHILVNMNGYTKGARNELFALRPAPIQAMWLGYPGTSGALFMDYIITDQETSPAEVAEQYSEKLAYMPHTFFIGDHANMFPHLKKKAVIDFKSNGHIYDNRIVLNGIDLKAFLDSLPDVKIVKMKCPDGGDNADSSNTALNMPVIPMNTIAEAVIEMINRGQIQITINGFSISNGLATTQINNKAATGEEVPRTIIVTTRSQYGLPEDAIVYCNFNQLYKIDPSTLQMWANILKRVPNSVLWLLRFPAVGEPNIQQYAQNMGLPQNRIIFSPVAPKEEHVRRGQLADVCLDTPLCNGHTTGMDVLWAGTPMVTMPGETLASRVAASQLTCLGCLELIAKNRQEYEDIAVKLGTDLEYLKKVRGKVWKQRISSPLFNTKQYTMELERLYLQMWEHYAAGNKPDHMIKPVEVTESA
Read-out: binding
Method: phage display NGS
Molecule type: peptide
Concentration: concentration not given
Relative to: input library
| Sequence | enrichment fold change |
| --- | --- |
| HQYHHFRDNYNQIFM | 10.7 |
| RVQIMPVYQIDIPSA | 13.2 |
| GGGHVMHHYYDKHNP | 2.47 |
| HKTWHPHHMVQTPN | 4.49 |
| QFLHNHSDEKSHPHY | 4.93 |
| VTSENHPHVYMYYHV | 3.39 |
| FKDGRHAERHFFHQH | 9.47 |
| TDKHQHMHHVTHVA | 12.8 |

Other studies, line by line
| SMILES | cell line | concentration | setting | relative to | quantity | value |
| --- | --- | --- | --- | --- | --- | --- |
| CNCc1ccc(-c2[nH]c3cc(F)cc4c3c2CCNC4=O)cc1 | RPE-1 BRCA2-/- | 0.01 µM | unit not given | untreated | clonogenic survival | 0.299 and 0.131 and 0.21 |

Excerpt of the above (series 3):
| Sequence | enrichment fold change |
| --- | --- |
| HQYHHFRDNYNQIFM | 10.7 |
| GGGHVMHHYYDKHNP | 2.47 |
| QFLHNHSDEKSHPHY | 4.93 |
